# Measurements collected from several papers.
# Each numbered part is a random draw from the data of one study; scales do not carry over between parts.

# Set 1
# Target: Histone acetyltransferase KAT6A, winged helix 2, GST fusion (KAT6A, Homo sapiens, UniProt Q92794, residues 85-181)
# Method: protein binding microarray
# Form: double-stranded DNA, one strand shown
# Medium: in vitro
# Concentration: not given
# Setting: 8-mer, flanks averaged, mean of 2 arrays, mostly near background
# Relative to: not given
# Direction: higher = stronger binding
# Construct (chain): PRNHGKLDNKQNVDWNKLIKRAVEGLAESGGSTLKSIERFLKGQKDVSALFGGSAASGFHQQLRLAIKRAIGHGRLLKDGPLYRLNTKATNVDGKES
Strand,E-score
ACACCAGG,0.0144
GACAAGTA,-0.139
CGGTCATC,-0.129
ACCGGATC,-0.00822
AGATGCTG,-0.167
GACTAGTA,-0.238

# Set 2
# Target: Prothrombin, mature alpha-thrombin (F2, Homo sapiens, UniProt P00734)
# Method: aptamer microarray, sandwich
# Form: DNA with 2'F-ANA
# Medium: in vitro
# Concentration: 200 nM
# Setting: whole 15-mer aptamer, many near background
# Added: Cy3 exosite-II aptamer, 400 nM
# Direction: higher = stronger binding
# Strand: GGTTGGTGTGGTTGG
Modification,mean fluorescence intensity [a.u.]
2'F-ANA at 1 2 3 4 5 10 11 12,53.5
2'F-ANA at 2 3 7 9 11 14 15,378
2'F-ANA at 1 9 10 12 13 15,74.7
2'F-ANA at 2 3 5 6 7 8 9 11 12 14,74.2
2'F-ANA at 1 2 3 5 6 9 10 11,56.8

# Set 3
# Target: Sal-like protein 4, full length isoform A (SALL4, Homo sapiens, UniProt Q9UJQ4, residues 1-1053)
# Chain of UniProt Q9UJQ4 (whole entry, looked up): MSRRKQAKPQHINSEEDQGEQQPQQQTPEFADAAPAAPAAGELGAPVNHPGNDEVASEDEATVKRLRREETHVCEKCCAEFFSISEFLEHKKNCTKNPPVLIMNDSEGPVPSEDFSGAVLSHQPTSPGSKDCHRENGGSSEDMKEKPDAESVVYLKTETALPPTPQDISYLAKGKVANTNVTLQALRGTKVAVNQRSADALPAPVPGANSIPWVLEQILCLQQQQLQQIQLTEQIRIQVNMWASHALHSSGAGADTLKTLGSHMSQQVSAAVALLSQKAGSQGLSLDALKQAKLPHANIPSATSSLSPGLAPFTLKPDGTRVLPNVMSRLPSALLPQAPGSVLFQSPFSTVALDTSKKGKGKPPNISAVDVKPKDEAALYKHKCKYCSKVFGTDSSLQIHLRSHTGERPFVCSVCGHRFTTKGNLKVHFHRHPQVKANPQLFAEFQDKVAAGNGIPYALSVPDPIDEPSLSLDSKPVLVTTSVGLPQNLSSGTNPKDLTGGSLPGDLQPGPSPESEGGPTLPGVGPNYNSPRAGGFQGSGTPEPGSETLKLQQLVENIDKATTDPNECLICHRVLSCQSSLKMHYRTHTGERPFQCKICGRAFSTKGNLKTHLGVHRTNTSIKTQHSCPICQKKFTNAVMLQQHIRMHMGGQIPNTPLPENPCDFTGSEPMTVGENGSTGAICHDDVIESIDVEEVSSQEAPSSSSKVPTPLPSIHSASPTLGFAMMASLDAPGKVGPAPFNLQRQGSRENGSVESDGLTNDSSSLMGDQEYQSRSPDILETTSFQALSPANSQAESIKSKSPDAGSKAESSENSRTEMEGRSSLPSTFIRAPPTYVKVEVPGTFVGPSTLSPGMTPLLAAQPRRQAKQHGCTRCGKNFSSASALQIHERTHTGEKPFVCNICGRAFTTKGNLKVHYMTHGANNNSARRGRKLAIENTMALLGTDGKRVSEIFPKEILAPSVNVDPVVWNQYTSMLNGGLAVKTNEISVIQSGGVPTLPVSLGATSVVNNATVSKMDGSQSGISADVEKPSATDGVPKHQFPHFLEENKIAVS
# Method: universal PBM
# Form: double-stranded DNA, one strand shown
# Medium: in vitro
# Concentration: 600 nM
# Setting: 8-mer, flanks averaged, mean of replicates
# Direction: higher = stronger binding
Strand,E-score
AACAATGT,0.223
ACATCCTA,0.0947
AGGTGTAT,0.176
AGCACCCA,-0.184
AATAAACA,0.376
AAGTAGCC,-0.247
ACCGTGCC,-0.114

# Mixed results
Molecule,target,test,test system,setting,how to read,quantity,value
"PhoQ, residues 284 288 289 292 302 303 ASSHFY","PhoP, residues 12 14 15 18 19 LHSVW (Escherichia coli, UniProt P23836)","Sort-seq, refers to: YFP reporter",E. coli,"PhoQ-PhoP variant library, added: 10 µM Mg2+","relative to: high Mg2+ state, higher = stronger signaling",fold induction,11.2

# For quick reference, copied from above (set 3):
Strand,E-score
AGGTGTAT,0.176
AAGTAGCC,-0.247
AATAAACA,0.376
